Measured values gathered from unrelated publications.
Compare with care: the assays were run in different laboratories.
TDP1: Tyrosyl-DNA phosphodiesterase 1 (TDP1, Homo sapiens, UniProt Q9NUW8)
Sequence of UniProt Q9NUW8 (whole entry, looked up): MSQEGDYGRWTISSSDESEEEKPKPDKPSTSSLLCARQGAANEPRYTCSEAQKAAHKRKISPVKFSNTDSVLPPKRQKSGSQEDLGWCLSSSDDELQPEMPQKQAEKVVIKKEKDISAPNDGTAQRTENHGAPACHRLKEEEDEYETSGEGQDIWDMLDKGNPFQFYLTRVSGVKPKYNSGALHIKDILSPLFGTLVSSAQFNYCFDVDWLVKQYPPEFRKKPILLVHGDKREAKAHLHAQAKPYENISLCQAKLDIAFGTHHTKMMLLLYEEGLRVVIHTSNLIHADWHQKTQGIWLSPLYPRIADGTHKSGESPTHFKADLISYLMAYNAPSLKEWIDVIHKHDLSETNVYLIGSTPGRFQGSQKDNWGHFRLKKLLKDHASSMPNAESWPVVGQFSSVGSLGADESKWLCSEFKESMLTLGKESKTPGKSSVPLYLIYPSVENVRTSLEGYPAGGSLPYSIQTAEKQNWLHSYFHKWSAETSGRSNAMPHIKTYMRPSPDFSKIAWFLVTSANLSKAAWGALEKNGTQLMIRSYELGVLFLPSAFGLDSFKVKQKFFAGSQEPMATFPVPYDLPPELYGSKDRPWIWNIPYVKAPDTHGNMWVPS
Sequence of UniProt P0A7A9 (whole entry, looked up): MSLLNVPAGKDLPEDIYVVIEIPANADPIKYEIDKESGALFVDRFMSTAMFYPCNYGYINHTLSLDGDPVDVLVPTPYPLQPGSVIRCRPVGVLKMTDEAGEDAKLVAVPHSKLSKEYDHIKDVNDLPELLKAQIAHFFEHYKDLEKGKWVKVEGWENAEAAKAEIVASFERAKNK

The binding of `C=CC(=O)Nc1cccc(Cn2ncc3cnc(Nc4cnn(CCOC)c4)nc32)c1` is reported as 86% (human p38-gamma; KINOMEscan; 100 nM; baseline: control).
With `C=C(NC(=O)c1csc(-c2nc3c(cc2O)-c2nc(cs2)C(=O)NC(C(C)O)C(=O)NC(=C(C)OC)c2nc(cs2)C(=O)NC2c4nc(cs4)C(=O)NC(COC(=O)c4c5c6c(cccc6n4O)COC(=O)C(OC4CC(C)(O)C(N(C)C)C(C)O4)C2OC5)c2nc-3cs2)n1)C(N)=O` (stereo not shown) the bacterial load was 5.49 log CFU/g (Streptococcus pneumoniae; -4, immunocompromised mice, lung infection, lung; 4 mg/kg/day three times daily, 24 h post-dose).
For `CN1CCCNC(=O)c2cccc(c2)C(=O)NCCCN(C)CCCNc2cccc3c2C(=O)c2cccc(c2C3=O)NCCC1`, “log2 fold change” read -0.706 (SAS; RNA-Seq, refers to: SMAP2 mRNA; 1 µM, 6 h; baseline: untreated cells).
`COCC1CN(C2CCN(c3cc(OC)c(Nc4ncc(Br)c(Nc5ccc6c(c5P(C)(C)=O)OCCO6)n4)cc3C)CC2)C1` has a progressive disease of 66.7% (RECIST 1.1; advanced EGFR-mutant NSCLC patients; 30 mg once daily).
With `CNS(=O)(=O)Nc1nccc(Cc2c(C)c3ccc(Oc4ncccc4F)cc3oc2=O)c1F` the IC50 was 214 nM (MSTO-211H; cell viability; 7 days).
`c1csc(C2=Nn3c(nnc3C3CCCCC3)SC2)c1` gave an IC50 of over 100000 nM (ppa (Escherichia coli, UniProt P0A7A9); enzyme activity, inhibitor).
`O=C(O)c1ccc(Nc2c(-c3ccccc3)nc3ccc(CON=Cc4cc(F)cc5c4OCOC5)cn23)cc1` has an inhibition of -6.7% (TDP1; enzyme activity, inhibitor; 100 µM, unpurified compound).
`Cn1ncc2cc(-c3cncc(Cl)c3N3CCC4(CCNC4=O)CC3)ccc21` — result for “log2 fold change”: -1.33 (LS174T; gene expression, microarray, refers to: CIITA mRNA; concentration not given, 4 h; baseline: untreated cells).
Under “log2 fold change”, `COC1CN([C@H]2CC[C@H]([C@@]3(C)Oc4c(Cl)cc(C(=O)NCc5c(SC)cc(C)[nH]c5=O)c(C)c4O3)CC2)C1` is recorded as 6.52 (RNA-seq, refers to: DZIP1; human, whole blood; dose not given, 24 h; baseline: pretreatment baseline).
`C=CC(=O)N1[C@@H](c2ccc3c(c2)OCO3)c2[nH]c3ccccc3c2C[C@H]1C(=O)N1CCN(C)CC1` — result for “log2 fold change”: -0.0145 (CCNE1 WT-3xFLAG:CDK2 complex; co-IP TMT proteomics, refers to: ZCCHC6; HEK-293T; 20 µM, 6 h; baseline: DMSO).
With `CN(C(=O)C(C)(C)c1cc(C(F)(F)F)cc(C(F)(F)F)c1)c1cnc(N2C[C@H]3COC(O)CN3C[C@H]2CO)cc1-c1ccc(F)cc1CO` (stereo partly shown) the Vmax was 251 pmol/min/mg (human liver microsomes; substrate depletion).
`Cc1ncsc1-c1ccc(C(C)NC(=O)C2CC(O)CN2C(=O)C(NC(=O)CCCCCCCCCCN2CCCC(Nc3ncc(Cl)c(Nc4ccccc4S(=O)(=O)C(C)C)n3)C2)C(C)(C)C)cc1` (stereo not shown): “log2 fold change” -1.57 (22Rv1; RNA-seq, refers to: LRRC27 mRNA; concentration not given; baseline: DMSO).
`Cn1cc(C=NOCc2ccc3nc(-c4ccccc4)c(Nc4ccc(C(=O)O)cc4)n3c2)c(-c2ccc3c(c2)OCCCO3)n1` (mixture of isomers) has an inhibition of 9.7% (TDP1; enzyme activity, inhibitor; 100 µM, unpurified compound).
With `CN(C(=O)C(C)(C)c1cc(C(F)(F)F)cc(C(F)(F)F)c1)c1cnc(N2C[C@H]3COCCN3C[C@H]2CO)cc1-c1ccc(F)cc1CO` the Vmax was 281 pmol/min/mg (human liver microsomes; substrate depletion).
`c1ccc(-c2n[nH]cc2-c2ccnc3ccccc23)nc1` — result for “log2 fold change”: 0.09 (MCK1 (Candida albicans); kinase binding, MIB/MS competition; Candida albicans lysate; 1 µM; baseline: DMSO).
With `Nc1ncc(-c2cc(-c3cnn(CC(F)(F)F)c3)ncc2F)nc1C(=O)NC1CNCC(F)C1` (stereo not shown) the remaining binding was 31% (HPK1; KINOMEscan; 1 µM; baseline: DMSO control).
For `CC=C(C)C(=O)OC1CC2C(C=C(C)C3C(OC(C)=O)CC(=O)C13C)OC(=O)C2C` (stereo not shown), the inhibition was 0% (Helicobacter pylori; microbial growth, broth dilution; 0.48 µg/mL).
`CCN(CC)CC(=O)Nc1cccc(-n2cc(-c3ccc4ccc(-c5cn(-c6cccc(NC(=O)CN(CC)CC)c6)nn5)cc4c3)nn2)c1` gave a fold regulation of -1.13 (RCC4; PCR angiogenesis array, refers to: COL4A3; 5 x IC50, 4 h, normoxia; baseline: untreated).
The inhibition of `CO[C@@H]1OC[C@@H](O)[C@H](O)[C@H]1O` is reported as 0% (Helicobacter pylori; microbial growth, broth dilution; 3.9 µg/mL).
With `CCC(=O)N(C)c1ccc(Cl)c(Cl)c1` the inhibition was under 10% (Na+ channel site 2; radioligand binding; 10 µM).
`CC(C)(C)NCC(SS(=O)(=O)O)c1ccccc1` (stereo not shown): “spleen weight decrease” 52% (Schistosoma mansoni; perfusion day 44; infected Swiss Webster mice; 600 mg/kg single dose, 1056 h, dosed day 15 post-infection; baseline: vehicle control).
With `C/C=C(/C)C(=O)O[C@@H]1C=C(C)CC[C@]2(O)[C@@H](C(C)C)CC(=O)[C@]12C` the inhibition was 0% (Helicobacter pylori; microbial growth, broth dilution; 0.48 µg/mL).

Excerpt of the above:
With `C=C(NC(=O)c1csc(-c2nc3c(cc2O)-c2nc(cs2)C(=O)NC(C(C)O)C(=O)NC(=C(C)OC)c2nc(cs2)C(=O)NC2c4nc(cs4)C(=O)NC(COC(=O)c4c5c6c(cccc6n4O)COC(=O)C(OC4CC(C)(O)C(N(C)C)C(C)O4)C2OC5)c2nc-3cs2)n1)C(N)=O` (stereo not shown) the bacterial load was 5.49 log CFU/g (Streptococcus pneumoniae; -4, immunocompromised mice, lung infection, lung; 4 mg/kg/day three times daily, 24 h post-dose).
For `CN1CCCNC(=O)c2cccc(c2)C(=O)NCCCN(C)CCCNc2cccc3c2C(=O)c2cccc(c2C3=O)NCCC1`, “log2 fold change” read -0.706 (SAS; RNA-Seq, refers to: SMAP2 mRNA; 1 µM, 6 h; baseline: untreated cells).
`COCC1CN(C2CCN(c3cc(OC)c(Nc4ncc(Br)c(Nc5ccc6c(c5P(C)(C)=O)OCCO6)n4)cc3C)CC2)C1` has a progressive disease of 66.7% (RECIST 1.1; advanced EGFR-mutant NSCLC patients; 30 mg once daily).
